Measurements gathered from unrelated publications.
Values joined by “and” are separate records of one study, mostly repeats; a detail may differ. Numbers after ± are the reported error.

SMILES | assay | system | setting | how to read | measurement | value
C1=Cc2nc1cc1ccc([n-]1)c(-c1ccccc1)c1nc(cc3ccc([n-]3)c2-c2ccccc2)C=C1.CC(=O)[O-].[Mn+3] | LC-MS/MS | Sprague-Dawley rat, plasma | oral gavage, dose not given, 60 min |  | mean plasma concentration | 53 ng/mL
CO[C@H]1C[C@@H]2CC[C@@H](C)[C@@](O)(O2)C(=O)C(=O)N2CCCC[C@H]2C(=O)O[C@H]([C@H](C)C[C@@H]2CC[C@@H](OC(=O)NCCOCCOCCOCCOCCOCCOCCOCCOCCC(=O)N3CCc4cc(Cn5nc(-c6ccc7oc(N)nc7c6)c6c(N)ncnc65)ccc4C3)[C@H](OC)C2)C[C@@H](O)[C@H](C)/C=C(\C)[C@@H](O)[C@@H](OC)C(=O)[C@H](C)C[C@H](C)/C=C/C=C/C=C/1C |  | patients with advanced solid tumours | intravenous, 6 mg weekly, grade 3 or higher |  | diarrhoea incidence | 0%
C[C@]1(CO)Cc2ncn(-c3ccc(C#N)c(Cl)c3)c2C(=O)O1 |  | human | 0.7 mg single dose |  | subjects with drug-related dysgeusia | 0%
CCCC[C@@H]1NC(=O)[C@H](Cc2ccc(O)cc2)NC(=O)[C@@H]2CCCN2C(=O)[C@H](CC(=O)O)NC(=O)[C@H](C)NC(=O)[C@H](Cc2ccccc2)NC(=O)[C@@H]2CSCCC(=O)N3CN(CN(C3)C(=O)CCSC[C@@H](C(N)=O)NC1=O)C(=O)CCSCCC(=O)N[C@@H](CC(C)(C)C)C(=O)N1CCC[C@H]1C(=O)N[C@@H](CCC(=O)O)C(=O)N[C@H](CCCCNC(=O)CCc1cn(CCOCCOCCOCCN(CCOCCOCCOCCC(=O)N[C@H]3CSCCC(=O)N4CN5CN(C4)C(=O)CCSC[C@H](NC(=O)[C@@H](CC(=O)O)NC(=O)[C@H](Cc4cccc6ccccc46)NC(=O)[C@@H]4CCCN4C3=O)C(=O)N[C@@H](CCSC)C(=O)N[C@@H](CCCCNC(=N)N)C(=O)N[C@@H](CC(=O)O)C(=O)N[C@@H](Cc3c[nH]c4ccccc34)C(=O)N[C@@H](CO)C(=O)N[C@@H]([C@@H](C)O)C(=O)N3CCC[C@H]3C(=O)N3C[C@H](O)C[C@H]3C(=O)N[C@@H](Cc3c[nH]c4ccccc34)C(=O)N[C@H](C(N)=O)CSCCC5=O)CCOCCOCCOCCn3cc(CCC(=O)NCCCC[C@H]4NC(=O)[C@H](CCC(=O)O)NC(=O)[C@@H]5CCCN5C(=O)[C@H](CC(C)(C)C)NC(=O)CCSCCC(=O)N5CN6CN(C5)C(=O)CCSC[C@H](NC(=O)[C@H](Cc5ccc(O)cc5)NC(=O)[C@@H]5CCCN5C4=O)C(=O)N[C@@H](Cc4ccccc4)C(=O)N[C@@H](C)C(=O)N[C@@H](CC(=O)O)C(=O)N4CCC[C@H]4C(=O)N[C@@H](Cc4ccc(O)cc4)C(=O)N[C@@H](CCCC)C(=O)N[C@H](C(N)=O)CSCCC6=O)nn3)nn1)C(=O)N1CCC[C@H]1C(=O)N[C@@H](Cc1ccc(O)cc1)C(=O)N2 |  | Sprague-Dawley rat |  |  | unbound clearance | 51 mL/min/kg
O=C(O)CCCOc1ccc(F)cc1-c1cc(-c2ccccc2C(F)(F)F)n(-c2ccccc2)n1 |  | male Crl:CD(SD) rats, brain | intravenous, 25 µg/kg, 14 d |  | organ weight | 2.06 ± 0.08 g
CC(=O)c1c(C)c2cnc(Nc3ccc(C4CCN(CCS(C)(=O)=O)CC4)cn3)nc2n(C2CCCC2)c1=O |  | human, plasma | oral, 25 mg once daily, day 21, multiple doses |  | Vd | 794 L
CC(C)[C@@H]1NC(=O)CNC(=O)[C@H](CC(N)=O)NC(=O)[C@H](CCCNC(=N)N)NC(=O)[C@H](Cc2ccc(O)cc2)NC(=O)[C@H](C(C)C)NC(=O)[C@@H](NC(=O)[C@@H](NC(=O)[C@H](CC(N)=O)NC(=O)[C@H](Cc2c[nH]c3ccccc23)NC(=O)[C@H](C)NC(=O)[C@H](Cc2ccccc2)NC(=O)CN)C(C)C)CSSC[C@@H](C(=O)N[C@@H](Cc2c[nH]cn2)C(=O)N[C@@H](CCCNC(=N)N)C(=O)N[C@@H](CCCNC(=N)N)C(=O)N[C@@H](C)C(=O)N[C@@H](CC(N)=O)C(N)=O)NC(=O)[C@H](C(C)C)NC(=O)[C@H](CCCNC(=N)N)NC1=O | circular dichroism, refers to: Random-coil | PBS | 80 µM, pH 7.4, added: LTA 1 µM |  | secondary structure content | 33.7%
COc1cccc(Oc2ccccc2NC(=O)CNC(=O)c2cccc3ccccc23)c1 |  | esterase-deficient SCID mice, male | oral, 100 mg/kg/day, 14 days, toxicity study |  | serum potassium | 9.6 mmol/L and > 10 mmol/L and 8.8 mmol/L
C[C@]1(O)C[C@@](N)(c2ccc(-c3nc4n(c3-c3ccccc3)COc3ccncc3-4)cc2)C1 |  | human, advanced or metastatic solid tumours | dose not given, all patients, any grade |  | patients with Nausea TEAE | 17.6%
COc1cc2c(Oc3ccc4[nH]c(C)cc4c3F)ccnc2cc1OCC1(N)CC1 | refers to: grade 1 or 2 abdominal distension | paediatric high-risk refractory sarcoma | 8 mg |  | incidence of adverse event | 0%
O=c1cc(-c2ccc(O)c(O)c2)oc2cc(O)cc(O)c12 |  | male Sprague-Dawley rat, obese | oral, 100 mg/kg of neohesperidin, 12 to 24 h, after β-glucuronidase/sulfatase hydrolysis |  | urinary excreted amount, total | 29.1 ± 6.67 ng
Cn1ncc(-c2nc(N[C@H]3CC[C@H](N)CC3)ncc2Cl)c1CC1CC1 | HPLC-MS/MS | patients, plasma | oral, 8 mg, day 1 |  | Cmax | 18 ng/mL
Clc1cc2c(cc1Cl)Oc1c(ccc(Cl)c1Cl)O2 |  | cow whole milk | 20 nM | relative to: milk fat over skim milk | milk fat partition ratio | 237
CN1CC[C@@H](c2c(O)cc(O)c3c(=O)cc(-c4ccc(C(F)(F)F)cc4Cl)oc23)[C@@H]1CO | refers to: Anemia | relapsed B-cell malignancies or AML | oral, 100 mg, grade 3-4, continuous dosing |  | patients with adverse event | 0%

Repeated from above:
SMILES | assay | system | setting | how to read | measurement | value
C[C@]1(CO)Cc2ncn(-c3ccc(C#N)c(Cl)c3)c2C(=O)O1 |  | human | 0.7 mg single dose |  | subjects with drug-related dysgeusia | 0%
